Results of several laboratories.
A part holds a random share of what one study measured.
Sequence of UniProt P50406 (whole entry, looked up): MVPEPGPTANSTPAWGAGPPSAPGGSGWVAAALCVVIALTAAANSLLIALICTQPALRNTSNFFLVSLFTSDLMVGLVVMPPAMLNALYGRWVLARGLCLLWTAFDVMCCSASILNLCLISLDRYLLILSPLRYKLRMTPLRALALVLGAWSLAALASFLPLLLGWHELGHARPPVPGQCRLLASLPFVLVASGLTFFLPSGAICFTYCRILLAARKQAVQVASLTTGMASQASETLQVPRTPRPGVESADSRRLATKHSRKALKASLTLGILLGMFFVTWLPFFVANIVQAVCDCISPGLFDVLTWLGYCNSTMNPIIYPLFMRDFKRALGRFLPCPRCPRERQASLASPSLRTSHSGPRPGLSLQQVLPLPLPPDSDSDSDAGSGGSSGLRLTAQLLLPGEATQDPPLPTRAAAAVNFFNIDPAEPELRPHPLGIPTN
Sequence of UniProt P35367 (whole entry, looked up): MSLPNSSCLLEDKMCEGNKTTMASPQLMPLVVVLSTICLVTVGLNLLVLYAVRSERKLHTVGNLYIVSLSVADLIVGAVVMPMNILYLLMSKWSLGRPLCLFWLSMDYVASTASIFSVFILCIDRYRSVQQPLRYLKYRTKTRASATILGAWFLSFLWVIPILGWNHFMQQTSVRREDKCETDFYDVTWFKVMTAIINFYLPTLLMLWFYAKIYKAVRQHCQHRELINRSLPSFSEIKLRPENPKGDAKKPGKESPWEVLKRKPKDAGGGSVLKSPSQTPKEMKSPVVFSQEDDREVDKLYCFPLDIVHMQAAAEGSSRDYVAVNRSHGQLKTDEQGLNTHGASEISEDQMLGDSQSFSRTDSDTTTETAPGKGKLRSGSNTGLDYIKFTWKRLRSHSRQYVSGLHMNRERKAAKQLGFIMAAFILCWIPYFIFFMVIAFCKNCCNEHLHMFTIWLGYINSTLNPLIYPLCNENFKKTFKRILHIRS
Sequence of UniProt P21917 (whole entry, looked up): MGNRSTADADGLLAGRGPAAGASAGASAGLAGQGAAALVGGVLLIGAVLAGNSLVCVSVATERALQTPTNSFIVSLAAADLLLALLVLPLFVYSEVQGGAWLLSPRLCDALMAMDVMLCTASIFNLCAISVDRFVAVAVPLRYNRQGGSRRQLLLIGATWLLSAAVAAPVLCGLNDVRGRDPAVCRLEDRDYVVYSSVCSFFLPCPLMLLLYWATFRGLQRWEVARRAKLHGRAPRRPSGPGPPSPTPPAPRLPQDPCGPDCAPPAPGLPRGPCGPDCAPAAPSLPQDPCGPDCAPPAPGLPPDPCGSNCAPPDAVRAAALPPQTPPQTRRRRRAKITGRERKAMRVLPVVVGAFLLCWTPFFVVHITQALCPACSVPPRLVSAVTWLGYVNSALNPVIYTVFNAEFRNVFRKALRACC
Sequence of UniProt P08912 (whole entry, looked up): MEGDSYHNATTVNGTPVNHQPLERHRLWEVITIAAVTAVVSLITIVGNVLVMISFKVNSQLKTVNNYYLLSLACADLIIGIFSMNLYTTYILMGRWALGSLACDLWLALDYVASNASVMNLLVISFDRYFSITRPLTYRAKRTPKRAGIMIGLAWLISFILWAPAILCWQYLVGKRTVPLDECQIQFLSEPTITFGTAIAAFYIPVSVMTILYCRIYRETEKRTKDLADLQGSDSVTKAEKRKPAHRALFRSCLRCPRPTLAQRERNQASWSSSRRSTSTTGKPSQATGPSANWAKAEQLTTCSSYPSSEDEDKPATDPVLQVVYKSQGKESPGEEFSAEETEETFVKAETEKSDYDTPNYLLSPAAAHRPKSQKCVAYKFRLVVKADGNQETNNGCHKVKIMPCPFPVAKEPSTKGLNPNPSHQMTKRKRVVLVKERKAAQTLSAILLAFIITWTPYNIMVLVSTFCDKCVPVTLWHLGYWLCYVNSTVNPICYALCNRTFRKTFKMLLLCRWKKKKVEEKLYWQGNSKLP
Sequence of UniProt P21728 (whole entry, looked up): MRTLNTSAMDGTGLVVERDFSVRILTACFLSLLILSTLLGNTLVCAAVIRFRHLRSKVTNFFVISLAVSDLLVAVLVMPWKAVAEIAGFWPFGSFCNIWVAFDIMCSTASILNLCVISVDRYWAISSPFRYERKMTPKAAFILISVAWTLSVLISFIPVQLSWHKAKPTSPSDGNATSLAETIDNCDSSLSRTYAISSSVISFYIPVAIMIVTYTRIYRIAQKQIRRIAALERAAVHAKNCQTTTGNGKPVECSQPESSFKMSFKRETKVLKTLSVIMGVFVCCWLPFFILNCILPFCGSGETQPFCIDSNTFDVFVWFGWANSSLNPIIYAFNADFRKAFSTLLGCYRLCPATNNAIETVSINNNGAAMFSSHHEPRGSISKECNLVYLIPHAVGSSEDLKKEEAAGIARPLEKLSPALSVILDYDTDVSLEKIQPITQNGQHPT
Sequence of UniProt P47898 (whole entry, looked up): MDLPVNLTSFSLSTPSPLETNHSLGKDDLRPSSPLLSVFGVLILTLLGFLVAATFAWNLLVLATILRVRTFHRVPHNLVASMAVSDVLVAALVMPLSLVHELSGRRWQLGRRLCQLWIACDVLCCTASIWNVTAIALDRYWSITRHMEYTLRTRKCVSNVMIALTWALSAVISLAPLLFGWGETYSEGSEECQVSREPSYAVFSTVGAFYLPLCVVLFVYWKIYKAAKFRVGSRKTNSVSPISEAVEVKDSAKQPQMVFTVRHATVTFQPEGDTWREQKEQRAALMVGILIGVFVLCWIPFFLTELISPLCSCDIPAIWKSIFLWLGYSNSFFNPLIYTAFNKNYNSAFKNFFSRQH
Sequence of UniProt Q5BJF2 (whole entry, looked up): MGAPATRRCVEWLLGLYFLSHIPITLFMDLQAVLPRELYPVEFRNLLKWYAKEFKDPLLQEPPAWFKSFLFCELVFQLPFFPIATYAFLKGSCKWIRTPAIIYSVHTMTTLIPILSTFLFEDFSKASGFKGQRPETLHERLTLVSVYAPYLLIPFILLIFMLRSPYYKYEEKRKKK
Sequence of UniProt P25021 (whole entry, looked up): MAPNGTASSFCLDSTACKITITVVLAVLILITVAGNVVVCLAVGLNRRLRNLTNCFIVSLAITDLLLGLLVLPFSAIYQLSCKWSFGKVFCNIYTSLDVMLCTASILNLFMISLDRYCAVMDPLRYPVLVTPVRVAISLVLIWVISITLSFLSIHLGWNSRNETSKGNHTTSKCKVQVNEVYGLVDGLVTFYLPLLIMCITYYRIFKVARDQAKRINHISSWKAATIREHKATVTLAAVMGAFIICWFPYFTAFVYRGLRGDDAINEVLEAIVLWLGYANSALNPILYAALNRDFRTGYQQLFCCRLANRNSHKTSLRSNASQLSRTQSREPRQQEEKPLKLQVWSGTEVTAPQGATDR
Sequence of UniProt P18089 (whole entry, looked up): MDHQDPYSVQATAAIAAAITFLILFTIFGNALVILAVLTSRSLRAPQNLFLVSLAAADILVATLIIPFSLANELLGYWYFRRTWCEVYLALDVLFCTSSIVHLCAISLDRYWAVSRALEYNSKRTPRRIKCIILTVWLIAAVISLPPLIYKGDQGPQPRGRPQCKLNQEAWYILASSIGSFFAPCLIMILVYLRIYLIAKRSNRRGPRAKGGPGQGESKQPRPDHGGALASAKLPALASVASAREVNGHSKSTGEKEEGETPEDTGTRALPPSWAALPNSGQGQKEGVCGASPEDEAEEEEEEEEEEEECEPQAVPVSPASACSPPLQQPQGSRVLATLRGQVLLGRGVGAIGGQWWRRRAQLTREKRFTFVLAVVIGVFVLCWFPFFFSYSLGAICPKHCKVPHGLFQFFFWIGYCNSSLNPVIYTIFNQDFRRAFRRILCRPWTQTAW
Sequence of UniProt P08588 (whole entry, looked up): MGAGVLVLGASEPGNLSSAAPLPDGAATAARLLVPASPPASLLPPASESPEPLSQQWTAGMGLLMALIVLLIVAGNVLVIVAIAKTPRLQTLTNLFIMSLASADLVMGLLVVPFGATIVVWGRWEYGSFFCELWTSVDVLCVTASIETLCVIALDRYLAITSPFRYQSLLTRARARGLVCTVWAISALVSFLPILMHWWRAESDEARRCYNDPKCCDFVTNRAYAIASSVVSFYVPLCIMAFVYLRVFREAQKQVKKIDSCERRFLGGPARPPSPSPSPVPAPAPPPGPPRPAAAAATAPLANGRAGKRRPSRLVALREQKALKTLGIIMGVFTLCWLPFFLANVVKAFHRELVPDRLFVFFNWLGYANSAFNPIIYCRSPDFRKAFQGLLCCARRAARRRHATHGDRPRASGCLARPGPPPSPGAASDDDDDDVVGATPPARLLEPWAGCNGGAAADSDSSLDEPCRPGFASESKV
Sequence of UniProt P34969 (whole entry, looked up): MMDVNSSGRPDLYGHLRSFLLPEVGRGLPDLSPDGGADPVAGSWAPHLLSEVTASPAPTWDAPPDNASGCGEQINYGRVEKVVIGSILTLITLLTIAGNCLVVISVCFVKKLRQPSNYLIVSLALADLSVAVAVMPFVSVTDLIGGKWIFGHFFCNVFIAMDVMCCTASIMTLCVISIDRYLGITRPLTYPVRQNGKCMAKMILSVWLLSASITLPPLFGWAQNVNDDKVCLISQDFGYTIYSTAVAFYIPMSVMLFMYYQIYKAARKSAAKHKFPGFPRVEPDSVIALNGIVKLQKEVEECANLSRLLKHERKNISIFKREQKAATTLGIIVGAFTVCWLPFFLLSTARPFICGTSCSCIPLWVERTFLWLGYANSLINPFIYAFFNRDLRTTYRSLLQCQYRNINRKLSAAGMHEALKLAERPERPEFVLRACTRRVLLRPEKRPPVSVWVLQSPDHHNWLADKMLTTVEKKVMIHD

Sample 1 — cell line: Huh-7; tested at: 10 µM; time: 24 h; measurement: viability
COC(=O)[C@H](c1ccccc1Cl)N1CCc2sccc2C1: 101%
COCCOC(=O)C1=C(C)NC(C)=C(C(=O)OC(C)C)C1c1cccc([N+](=O)[O-])c1 (stereo not shown): 92.8%
Clc1ccccc1CN1CCc2sccc2C1: 99.4%
CN(C)CCCC1(c2ccc(F)cc2)OCc2cc(C#N)ccc21 (stereo not shown): 101%
NCc1ccc(S(N)(=O)=O)cc1: 104%
Oc1ccc(O)cc1: 80.3%
CCN(CC)CCOc1ccc2c(c1)C(=O)c1cc(OCCN(CC)CC)ccc1-2: 92.4%
OCCN1CCN(CCCN2c3ccccc3Sc3ccc(Cl)cc32)CC1: 94%
CC(N)C(=O)OC(C)(C)Cc1ccc(Cl)cc1 (stereo not shown): 96.5%
Cc1cc(NC(=O)C2=C(O)c3ccccc3S(=O)(=O)N2C)no1: 97%
O=C(NCC1CCCCN1)c1cc(OCC(F)(F)F)ccc1OCC(F)(F)F (stereo not shown): 104%
CCn1cc(C(=O)O)c(=O)c2cc3c(cc21)OCO3: 95.2%
C[N+](C)(C)CC(=O)O: 100%
Nc1nc2ncc(CNc3ccc(C(=O)N[C@@H](CCC(=O)O)C(=O)O)cc3)nc2c(=O)[nH]1: 102%
CCOC(=O)Nc1nc2ccccc2[nH]1: 93.6%

Sample 2 — host: human; medium: microsomes or S9; tested at: 2 µM; time: 0.5 h; measurement: remaining compound
Cn1ccnc1-c1[nH]c(-c2ccc(Cl)cc2)nc1-c1ccc(C(C)(C)C)cc1: 4.25%
Cc1cc(C(=O)NCCCN2CCCC2=O)cs1: 87.2%
CC(Oc1cc(-n2nc3c(c2Cl)CCCC3)c(F)cc1Cl)C(=O)NCCO (stereo not shown): 25.9%
Cc1nc2c(c(C)c(C)n2CCC2CCO2)c(-c2cc(F)c3c(c2C)CCCO3)c1[C@H](OC(C)(C)C)C(=O)O (stereo partly shown): 68.5%
Cc1ccc(C(O)(c2ccccc2)c2cnc(C(C)C)n2C)cc1 (stereo not shown): 13.3%
CC1(C)Cc2ccccc2C(C2=NC(C)(C)Cc3ccccc32)=N1: 6.92%
CNS(=O)(=O)c1cn(CC(=O)NCc2ccccc2OC)cc1S(=O)(=O)NC: 70.7%
COc1cccc(-c2[nH]ncc2CNC2(c3ccccc3F)CCCC2)c1: 0.141%
c1ccc2c(c1)CCN(c1nnc(-n3cccc3)s1)C2: 35.5%
C/C=C/Cn1c(C(=O)c2ccccc2)c(C(C)C)c(=O)[nH]c1=O: > 99%
CCN1CCn2c1nc(N1CCOCC1)nc2=O: > 99.9%
CCO[C@H]1CN(Cc2ccc3[nH]ccc3c2)C[C@@H]1O: 95.5%
O=C(c1cccs1)C1C(C(=O)c2ccco2)C2(C(=O)Nc3ccccc32)C2C=Cc3ccccc3N12 (stereo not shown): 4.26%
O=S(=O)(Cc1ccccc1)N1CC[C@H](c2ccccc2)[C@H]2NCCCC[C@H]21: 14.5%
CC(C)=CCn1c(CO)nc2c1c(=O)n(C)c(=O)n2C: > 99%

Sample 3 — SMILES: CCNC(=O)c1cc2c(N3CCOC[C@@H]3C)ccnc2[nH]1; observed: ligand displacement; method: radioligand; tested at: 10 µM; measurement: inhibition
ADRB1 (Homo sapiens, UniProt P08588): -11.7%
CHRM5 (Homo sapiens, UniProt P08912): -4.95%
ADRA2B (Homo sapiens, UniProt P18089): 34.4%
HTR7 (Homo sapiens, UniProt P34969): -4.45%
DRD4 (Homo sapiens, UniProt P21917): -3.84%
HRH1 (Homo sapiens, UniProt P35367): 4.94%
HRH2 (Homo sapiens, UniProt P25021): 1.31%
HTR5A (Homo sapiens, UniProt P47898): -8.05%
HTR6 (Homo sapiens, UniProt P50406): -8.52%
DRD1 (Homo sapiens, UniProt P21728): 1.92%
DRD3 (Homo sapiens, UniProt P35462): -7.82%
TMEM97 (Homo sapiens, UniProt Q5BJF2): 34.6%
CHRM4 (Homo sapiens, UniProt P08173): -13.8%

Sample 4 — observed: enzyme activity; mode: inhibitor; tested at: 0.5 µM; baseline: control; measurement: remaining activity
Target: Phosphorylase b kinase gamma catalytic chain, liver/testis isoform (PHKG2, Homo sapiens, UniProt P15735)
Residues (P15735 1-406): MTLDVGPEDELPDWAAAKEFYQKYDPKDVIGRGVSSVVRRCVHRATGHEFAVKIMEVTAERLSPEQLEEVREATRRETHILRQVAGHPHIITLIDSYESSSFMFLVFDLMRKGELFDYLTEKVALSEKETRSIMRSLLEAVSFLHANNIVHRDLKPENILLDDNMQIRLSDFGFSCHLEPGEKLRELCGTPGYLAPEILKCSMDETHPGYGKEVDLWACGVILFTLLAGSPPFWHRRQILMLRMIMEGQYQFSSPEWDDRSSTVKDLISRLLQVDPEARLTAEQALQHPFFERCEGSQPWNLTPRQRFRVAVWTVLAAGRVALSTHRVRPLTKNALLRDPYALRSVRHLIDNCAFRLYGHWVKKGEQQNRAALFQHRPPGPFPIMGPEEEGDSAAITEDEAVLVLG
CCN(CC)CCNC(=O)c1c(C)[nH]c(/C=C2\C(=O)Nc3ccc(F)cc32)c1C: 20.6%
O=C(NC(NC(=S)Nc1ccc(F)c([N+](=O)[O-])c1)C(Cl)(Cl)Cl)C(c1ccccc1)c1ccccc1 (stereo not shown): 109%
Ic1cccc(CSc2nnc(-c3ccncc3)o2)c1: 105%
Cc1cn(-c2cc(NC(=O)c3ccc(C)c(Nc4nccc(-c5cccnc5)n4)c3)cc(C(F)(F)F)c2)cn1: 97.9%
COc1cc2ncnc(Nc3ccc(O)c(Br)c3)c2cc1OC: 98%
CCN(CC)CCNC(=O)c1c(C)[nH]c(/C=C2\C(=O)Nc3ccc(Cl)cc32)c1C: 16.6%
O=C1c2ccccc2-c2n[nH]c3cccc1c23: 76.5%
c1ccc(-c2[nH]ncc2-c2ccnc3ccccc23)nc1: 97.7%
N#C/C(=C\c1ccc(O)c(O)c1)C(=O)NCc1ccccc1: 96%
N#Cc1c(NC(=O)c2cccc3ccccc23)sc2c1CCCC2: 101%
CN(C)C[C@H]1CCn2c(c(C3=C(c4cn(C)c5ccccc45)C(=O)NC3=O)c3ccccc32)C1: 104%
C[C@@H]1CCN(C(=O)CC#N)C[C@@H]1N(C)c1ncnc2[nH]ccc12: 98.6%
COc1cc2c(cc1OC)-c1[nH]nc(Nc3cccc(F)c3)c1C2: 121%
CN([C@@H](Cc1ccc(OS(=O)(=O)c2cccc3cnccc23)cc1)C(=O)N1CCN(c2ccccc2)CC1)S(=O)(=O)c1cccc2cnccc12: 101%
O=C1C(Cl)=C(N2C(=O)CCC2=O)C(=O)c2ccccc21: 100%
Nc1cccc(-c2cc3c(Oc4cccc(O)c4)ncnc3[nH]2)c1: 109%
c1ccc(-c2cnc(Nc3ccc(OCCN4CCCC4)cc3)s2)cc1: 97%
Cn1nc2c3c(cccc31)C(=O)c1ccccc1-2: 95.4%
Cc1nc2cc3nc(-c4cccs4)cnc3cc2n1C: 102%
CCN(CC)C(=O)c1ccc(Nc2nc(OCC3CCCCC3)c3[nH]cnc3n2)cc1: 96.6%
CCOc1nc(NC(=O)Cc2cc(OC)ccc2OC)cc(N)c1C#N: 100%
O=c1cc(-c2cccc3c2Sc2ccccc2S3)oc(N2CCOCC2)c1: 98.6%
Cc1cc2ncc(-c3ccccc3)nc2cc1C: 83.9%
COc1cc2ncnc(Nc3cccc(Cl)c3)c2cc1OC: 92.6%

For quick reference, copied from above (sample 1):
OCCN1CCN(CCCN2c3ccccc3Sc3ccc(Cl)cc32)CC1: 94%
CC(N)C(=O)OC(C)(C)Cc1ccc(Cl)cc1 (stereo not shown): 96.5%
Cc1cc(NC(=O)C2=C(O)c3ccccc3S(=O)(=O)N2C)no1: 97%
O=C(NCC1CCCCN1)c1cc(OCC(F)(F)F)ccc1OCC(F)(F)F (stereo not shown): 104%
CCn1cc(C(=O)O)c(=O)c2cc3c(cc21)OCO3: 95.2%
C[N+](C)(C)CC(=O)O: 100%
Nc1nc2ncc(CNc3ccc(C(=O)N[C@@H](CCC(=O)O)C(=O)O)cc3)nc2c(=O)[nH]1: 102%
CCOC(=O)Nc1nc2ccccc2[nH]1: 93.6%
